Assay results of several laboratories.
Lines come from different studies, so protocols differ. ± marks the error that the study gave.
Cell line: HUVEC

COc1ccc(C[S+]([O-])c2ccc3ccccc3c2)cc1NCC(=O)O (stereo not shown) — IC50 (cell growth or viability, MTS; 48 h): 6.77 µM
COc1ccc2cc3[n+](cc2c1OCCc1cn(Cc2ccc(Cl)c(Cl)c2)nn1)CCc1cc2c(cc1-3)OCO2 — IC50 (cell growth or viability, MTT): 15.7 µM
LRRFSTMPFMFGNINNVGNF — inhibition (cell migration, real-time cell analysis; peptide; 50 µM, together with: full medium chemoattractant; reference: vehicle): 87.9 ± 0.7%
COc1ccc(CS(=O)(=O)c2ccc3cc(Br)ccc3c2)cc1N — IC50 (cell growth or viability, MTS; 48 h): 1.82 µM
COc1ccc2cc3[n+](cc2c1OCCc1cn(Cc2ccc(C)cc2)nn1)CCc1cc2c(cc1-3)OCO2 — IC50 (cell growth or viability, MTT): 146 µM
LRRFSTMPFMFVNINNVVNF — inhibition (cell proliferation, WST-1; peptide; 100 µM, 72 h; reference: vehicle): 62.2 ± 0.64%
COc1cc(OC)c(/C=C/S(=O)(=O)Cc2ccc(OC)c(NCC(=O)O)c2)c(OC)c1 — IC50 (cell growth or viability, MTS; 48 h): 0.122 µM
VEGF — tube length (Matrigel; 1 ng/mL, 5 min then 8 h continuous; reference: control media): 1.8 fold
COC(=O)c1ccc(Cn2cc(CCOc3c(OC)ccc4cc5[n+](cc34)CCc3cc4c(cc3-5)OCO4)nn2)cc1 — IC50 (cell growth or viability, MTT): 48.9 µM
LRRFSTMPFMFTNINNVTNF — inhibition (cell adhesion, real-time cell analysis; peptide; 100 µM, 3 h; reference: vehicle): 98.69 ± 0.08%

Repeated from above:
LRRFSTMPFMFTNINNVTNF — inhibition (cell adhesion, real-time cell analysis; peptide; 100 µM, 3 h; reference: vehicle): 98.69 ± 0.08%
